# Published values pooled from the literature.
# Parts stem from different laboratories: compare values within a part only. Positions count from the first letter of the parent shown.

# Set 1
# Target: CCNB1, cyclin fold, Cln2 fusion (human)
# Method: yeast growth competition, sequencing
# Matrix: yeast
# Notes: weak parent motif
# Baseline: not given
# Reading: higher = stronger binding
# Starting sequence: ORC1 docking peptide (human); PRARKRLELGNLG
Substitution,normalised enrichment score
G10E,0.19
R2F,0.147
K5E,0.151
G10K,0.301
L9K,0.029
G10M,0.691
G13F,0.0908
G10T,-0.482
R4P,0.759
L12G,0.207
R2E,1.3
R6W,-0.66
L12H,0.942
L12P,1.02
P1S,0.385
K5M,0.612
P1C,1.37
L12N,0.631
K5L,0.105
L7E,0.578
A3M,1.67
E8L,0.5
E8C,0.497
L7Q,0.438

# Set 2
# Target: Histone acetyltransferase KAT6A, winged helix 2, GST fusion (KAT6A, Homo sapiens, UniProt Q92794, residues 85-181)
# Method: protein binding microarray
# Form: double-stranded DNA, one strand shown
# Matrix: in vitro
# Tested at: not given
# Notes: 8-mer, flanks averaged, mean of 2 arrays, mostly near background
# Baseline: not given
# Reading: higher = stronger binding
# Residues (chain): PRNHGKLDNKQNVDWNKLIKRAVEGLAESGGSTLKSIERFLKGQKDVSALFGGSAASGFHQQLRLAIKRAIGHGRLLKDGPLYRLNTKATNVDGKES
Sequence,E-score
AAGAGCTT,0.114
ATGAACCG,0.00863
CAACTCTC,-0.15
CACGGCGC,0.199
GTACAATA,0.0142
CAAAGATC,0.104
GACTCAAA,-0.146
TACATGAA,-0.1
AGAACCAA,-0.11
GTTTCATA,-0.146
ACAACGGC,-0.0406
AGATAACC,-0.229
ATAGCGCA,-0.111
AGTCTGCG,-0.0277
AGTATTCC,-0.00418
GTGCCAGA,-0.00873
AATGGCAG,0.124
ACTGAAGA,-0.0453
GGCTGAGA,-0.123
AAATGATA,0.162
ACAAAAAT,0.0762

# Set 3
# Target: RNA binding protein fox-1 homolog 2, RRM domain, GST-SBP tag (RBFOX2, Homo sapiens, UniProt O43251-10, residues 100-194)
# Method: RNA Bind-n-Seq
# Form: RNA
# Matrix: in vitro
# Tested at: 365 nM
# Notes: natural RNA segment, single round, ends assumed
# Baseline: no-protein control
# Reading: higher = stronger binding
# All sequences stand within: GGGAGUUCUACAGUCCGACGAUC … UGGAAUUCUCGGGUGCCAA
# Target sequence (chain): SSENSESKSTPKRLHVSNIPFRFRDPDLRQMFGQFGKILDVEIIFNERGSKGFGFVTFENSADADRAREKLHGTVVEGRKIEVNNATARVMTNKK
Sequence,RBNS enrichment (R)
UUUGAAUUCCUCCUCUAUUUAAGAUAUAUACAUGGAAUCGAAGUGUUUAUGUAAUAGUUCUAUCCUUUUGCCUGCAGGUCAGUUGUAAUAAAUCUAGGAUGUGAUGAUGA,4.76
UAUCUGGGCCUGGCCAUGGCUGUGUUCUUCAUGUGUUGAUUUUAUUUGACCCCUGGAGUGGUGGGUCUCAUCUUUCCCAUCUCGCCUGAGAGCGGCUGAGGGCUGCCUCA,0.563
GAGGAGUGAAAACCAUGCAAGUAGAUGCUUACUGCCUUGACAUGGGAAUUACGGUUAUGACAGAACGAAAGGUGACUGACAGGUGCUGCCCCUCCGAGAAGGUGGCUGCG,2.33
GUUGAAAUCAUUUGAACUAAUCAAGGAAUAAAUCCUAAUGUUCUGGGACUUUAUUUUCACAUGUUAAAUGCUGGAAUAUAUUAUGAAAAUGUUUUCAAGAAAUCACUUAA,0.394
GCCACUAGAUGACAAGAUGUUAUAACUAAGUUAAACCACAUCUGUGUAUCUCAAGGGACUUAAUUCAGCUGUCUGUAGUGAAUAAAAGUGGGAAAUUUUCAAAAGUUUCU,0.501
GUGCUCCCCUCCAAGACCCCUUAGCACAAGGGGAGACCCGCAGGCGGGGCUGAGCCACCCCCACAACCCUACCUUCUUCAUCCCCUCUGUCCCGUCUGUGGCAGAGGUUU,0.368
AGUUAGGAGGUGCAGACACUUGCUCUCCUAUGUAGUUCUCAGAUGCGUAAAGCAGAACAGCCUCCCGAAUGAAGCGUUGCCAUUGAACUCACCAGUGAGUUAGCAGCACG,0.187
CCUCUCCCAGGCUUAGUCAGCUACUCCUUUCUCUGGCCAGAGAAUCCCAUAAGGAAAUAGCCCCCACGCCAGGGCUGCUCUGCUCAGAGGAAGGGAAGGCUGGGCUGUGG,0.236
GCUCUAAUAAAAAUGAAAGCUCUCUGACAAGAAAUAGUUCUGGAUGGUUUGAAGAUCUGCGGGGAAAAAUAAGUGUGCACCUGAGACCUUCAGUUAGUCUUUUAUUUAUU,0.965
CAGGCCUUUCCCUGCCGGCCCCCCAAGGAUGGGGUUCUUGUCCACGGGGCUCACUCUGGCCCCCUAUUGUCUCCAAGGUCCCAUUUUCCCCCUGUGUUUUCACGCAGGUC,0.304
GUGCUGUAGGUAACGUGUGGCACUGCUGGCAAAUGAAGGUCAUGAGAUGAGUUCCUUGUAGGUACCAGCUUCUGGCUCAAGAGUUGAAGGUGCCAUCGCAGGGUCAGGCC,0.519
CCUUACCCUUUCUGUGUCCAUUGCUGGCCAUGGUCACUGAACUUGAAAUCACAGCCCUGCCAUUGGAGUGGGCGUUUGGAAUCCCUAGUGCUCCUGCUUUCAGUCCCCUC,0.513

# Set 4
# Target: RING finger protein unkempt homolog, zinc fingers 1-6, GST-SBP tag (UNK, Homo sapiens, UniProt Q9C0B0, residues 30-357)
# Method: RNA Bind-n-Seq
# Form: RNA
# Matrix: in vitro
# Tested at: not given
# Notes: RNA with constant flanks, human and mouse sites, ends assumed
# Baseline: input RNA pool
# Reading: higher = stronger binding
# All sequences stand within: GGGAGUUCUACAGUCCGACGAUC … CAACAGAGGAUUGAGCAUCA
# Residues (chain): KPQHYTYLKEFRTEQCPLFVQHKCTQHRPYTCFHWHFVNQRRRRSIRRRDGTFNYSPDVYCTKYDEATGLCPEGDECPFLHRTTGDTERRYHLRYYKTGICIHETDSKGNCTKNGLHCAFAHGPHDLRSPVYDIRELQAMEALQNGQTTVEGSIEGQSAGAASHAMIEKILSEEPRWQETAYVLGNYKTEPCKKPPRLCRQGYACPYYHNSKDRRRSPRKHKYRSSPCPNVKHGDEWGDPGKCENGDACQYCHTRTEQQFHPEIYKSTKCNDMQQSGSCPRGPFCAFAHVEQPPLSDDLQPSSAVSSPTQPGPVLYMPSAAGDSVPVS
Sequence,bound/input enrichment [ratio]
GACCUUCUGCAGUUCACAACGCAAGUCUCCCGACUCAUGGUGACGGAGAUCCGGAGGAGAGCUUCAAACAAAUCCACAGAGGCUGCAAGUCGGGCCAUAGUCCAGUUCCUGGAGAUCAAU,0.198
CCUGUUGGAAGAGCUGGGGUCUUGCUAUCUGAAAUAUUGCACCUACUAUGCAAACAAAUGAGCCAUAAGAAAGUGGGAGCCUUAUGGAGGGAGGCUGACCUCAGCUGGAAGGACUUUUUA,0.0875
UACUUAAAUGAAAUAAAACCUCCCAUCAUACACUAUGACCUCAAACCAGGUAAUAUUCUUUUAGUAAAUGGUACAGCGUGUGGAGAGAUAAAAAUUACAGAUUUUGGUCUUUCGAAGAUC,0.489
ACCACUCAACAAACAGUCCCCACCACACCUAUCUCCUUAGGCAAGACUUUGCCUCUCUCCUAGUCCUGAGUAUAAAUCCUGUGCAUAGAUUCCUCUAGAAAGGCAUCAAAAGGCUCAACA,1.34
ACCGCCAUCUACUGCUUCCUACGCUGCAUGGAGCCAGACCCUGAGAUCCCUUCUGCCUUCAAUAGCCUCCAAAGGACUCUCAUUUAUUCCAUCUCACUUGGUGGGGACACAGACACCAUU,0.306
CUGGCUGUUGAAAGACUGUUGGAGCCUCUUGUUACACAGGUUACAACCCUGGUAAACACCAAUAGUAAAGGGCCGUCUAAUAAAAAGAGAGGCCGUUCUAAGAAGGCCCAUGUUUUGGCU,5.2
GUUUCAAAUUUCCUGGUUAUGGGAGGAUUCCAGCUUCUUGCUAAGCCUGCCAUUGAUUUCCUAAAUAAAAACCAAGAACUCUUGCAAGAUUUGUCAGAAGUGAAUGAUGAGAACACUCAG,0.182
CCCCCACCGUUCCCUUUGGCUUUUGCACCCCCUUCUUUCCAUACACACACAUACCAUUAUUUUUUGGGCCAUUACCCCAUUUCCCUUAUUGCUGCCAAAACCACAUGGGCUGGGGGCUGG,1.63
UUUGUAAAAUUGUCCUAAUCUUUCCUAGCUUUUUAAUAGUUAAUAUUAGAAACUCUUUAAUAGUUUUCCUUUCAGUUUGUGAGCUCUUCUCUGUCGCCCUGAAGGGUCACUGUAUUCUGU,65.9
GUGUCGAGUUCCUUGGAGCAAUGAUCUUUGCUGCCAAGAUAUCUCAUUUCUUCUUGUUUCUUCUUCGCCCACGACCACUUCACAAACACCGACCAACAGCAAACAACAACCCACCCCGCU,0.447
GAAUUCCACUCUGUGGUCCACACCCUCUUGGAGUGGCUGGCAGAAGCAGAGCAAACCCUGCGUUUCCAUGGUGCUCUCCCAGAUGAUGAGGAUGCUCUCCGGACUCUCAUUGAGCAACAU,0.137

# Set 5
# Target: Prothrombin, mature alpha-thrombin (F2, Homo sapiens, UniProt P00734)
# Method: aptamer microarray, sandwich
# Form: DNA with 2'F-ANA
# Matrix: in vitro
# Tested at: 200 nM
# Notes: whole 15-mer aptamer, many near background
# Together with: Cy3 exosite-II aptamer, 400 nM
# Reading: higher = stronger binding
# Sequence: GGTTGGTGTGGTTGG
Modification,mean fluorescence intensity [a.u.]
2'F-ANA at 1 3 5 10 11 12 13 14 15,50
2'F-ANA at 4 5 6 8 10,44.6
2'F-ANA at 1 3 5 7 8 9 12 13 15,101
2'F-ANA at 4 5 8 10 15,57.9
2'F-ANA at 6 7 13 15,404
2'F-ANA at 10 11 13 14,115
2'F-ANA at 1 2 3 4 11 12 13 15,240
2'F-ANA at 2 5 10 11 12,49.4
2'F-ANA at 13,457
2'F-ANA at 2 4 5 6 7 9 11 12 14,46.5
2'F-ANA at 1 2 3 4 8 13 14 15,68.6
2'F-ANA at 4 5 6 9 15,64.2
2'F-ANA at 3 5 8 11 13 14 15,57.2
2'F-ANA at 1 2 5 6 10 14,47.1
2'F-ANA at 1 3 4 5 7 14 15,45.1
2'F-ANA at 2 3 8 9 11 14,449
2'F-ANA at 2 3 7 11 12 14,473
2'F-ANA at 1 3 4 5 6 7 8 9 10 14,47.8
2'F-ANA at 2 6 7 9 10 11 13 14 15,108
2'F-ANA at 1 2 4 8 9 11 12,219
2'F-ANA at 1 2 3 5 6 9 13 15,53.2
2'F-ANA at 4 6 8 10 11 12,93.9
2'F-ANA at 1 2 3 5 7 8 10 11,48.1
2'F-ANA at 6 9 10 12 14,101
2'F-ANA at 1 7 8 9 13 14 15,59.2

# Repeated from above (set 4):
Sequence,bound/input enrichment [ratio]
ACCGCCAUCUACUGCUUCCUACGCUGCAUGGAGCCAGACCCUGAGAUCCCUUCUGCCUUCAAUAGCCUCCAAAGGACUCUCAUUUAUUCCAUCUCACUUGGUGGGGACACAGACACCAUU,0.306
CCUGUUGGAAGAGCUGGGGUCUUGCUAUCUGAAAUAUUGCACCUACUAUGCAAACAAAUGAGCCAUAAGAAAGUGGGAGCCUUAUGGAGGGAGGCUGACCUCAGCUGGAAGGACUUUUUA,0.0875
GUGUCGAGUUCCUUGGAGCAAUGAUCUUUGCUGCCAAGAUAUCUCAUUUCUUCUUGUUUCUUCUUCGCCCACGACCACUUCACAAACACCGACCAACAGCAAACAACAACCCACCCCGCU,0.447
CUGGCUGUUGAAAGACUGUUGGAGCCUCUUGUUACACAGGUUACAACCCUGGUAAACACCAAUAGUAAAGGGCCGUCUAAUAAAAAGAGAGGCCGUUCUAAGAAGGCCCAUGUUUUGGCU,5.2
UACUUAAAUGAAAUAAAACCUCCCAUCAUACACUAUGACCUCAAACCAGGUAAUAUUCUUUUAGUAAAUGGUACAGCGUGUGGAGAGAUAAAAAUUACAGAUUUUGGUCUUUCGAAGAUC,0.489
UUUGUAAAAUUGUCCUAAUCUUUCCUAGCUUUUUAAUAGUUAAUAUUAGAAACUCUUUAAUAGUUUUCCUUUCAGUUUGUGAGCUCUUCUCUGUCGCCCUGAAGGGUCACUGUAUUCUGU,65.9
ACCACUCAACAAACAGUCCCCACCACACCUAUCUCCUUAGGCAAGACUUUGCCUCUCUCCUAGUCCUGAGUAUAAAUCCUGUGCAUAGAUUCCUCUAGAAAGGCAUCAAAAGGCUCAACA,1.34
GACCUUCUGCAGUUCACAACGCAAGUCUCCCGACUCAUGGUGACGGAGAUCCGGAGGAGAGCUUCAAACAAAUCCACAGAGGCUGCAAGUCGGGCCAUAGUCCAGUUCCUGGAGAUCAAU,0.198
GUUUCAAAUUUCCUGGUUAUGGGAGGAUUCCAGCUUCUUGCUAAGCCUGCCAUUGAUUUCCUAAAUAAAAACCAAGAACUCUUGCAAGAUUUGUCAGAAGUGAAUGAUGAGAACACUCAG,0.182
